Published values collected from several papers.
± marks the error that the study gave.
Sterol carrier protein 2: Sterol carrier protein 2 (Homo sapiens, UniProt P22307)
Chain of UniProt P22307 (whole entry, looked up): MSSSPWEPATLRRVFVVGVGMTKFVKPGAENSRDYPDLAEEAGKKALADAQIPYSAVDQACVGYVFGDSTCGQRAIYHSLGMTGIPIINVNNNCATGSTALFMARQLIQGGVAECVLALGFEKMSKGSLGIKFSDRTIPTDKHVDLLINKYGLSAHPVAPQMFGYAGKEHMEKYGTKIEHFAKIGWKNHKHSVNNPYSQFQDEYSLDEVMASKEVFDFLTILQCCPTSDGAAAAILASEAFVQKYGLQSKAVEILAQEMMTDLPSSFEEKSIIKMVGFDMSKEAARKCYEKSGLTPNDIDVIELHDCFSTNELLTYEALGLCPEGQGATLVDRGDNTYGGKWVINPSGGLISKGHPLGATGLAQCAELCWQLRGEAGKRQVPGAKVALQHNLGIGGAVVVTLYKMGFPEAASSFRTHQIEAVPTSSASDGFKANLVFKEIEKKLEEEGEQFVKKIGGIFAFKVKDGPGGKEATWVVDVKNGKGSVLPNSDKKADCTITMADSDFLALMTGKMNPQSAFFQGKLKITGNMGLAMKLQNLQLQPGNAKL
HTR2A: 5-hydroxytryptamine receptor 2A (HTR2A, Homo sapiens, UniProt P28223)
Chain of UniProt P28223 (whole entry, looked up): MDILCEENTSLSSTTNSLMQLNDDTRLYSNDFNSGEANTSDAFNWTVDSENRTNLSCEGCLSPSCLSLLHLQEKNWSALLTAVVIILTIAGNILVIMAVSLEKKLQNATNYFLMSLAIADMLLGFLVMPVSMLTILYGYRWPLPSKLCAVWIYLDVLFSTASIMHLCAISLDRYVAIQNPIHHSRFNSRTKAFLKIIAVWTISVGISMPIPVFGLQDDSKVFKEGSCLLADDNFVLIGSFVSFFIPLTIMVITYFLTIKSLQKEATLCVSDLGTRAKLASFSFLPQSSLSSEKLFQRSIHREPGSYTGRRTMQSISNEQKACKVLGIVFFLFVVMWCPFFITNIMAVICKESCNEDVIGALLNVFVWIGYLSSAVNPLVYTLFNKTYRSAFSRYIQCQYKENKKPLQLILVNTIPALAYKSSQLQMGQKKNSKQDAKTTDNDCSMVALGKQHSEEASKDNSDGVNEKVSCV
Chain of UniProt P41143 (whole entry, looked up): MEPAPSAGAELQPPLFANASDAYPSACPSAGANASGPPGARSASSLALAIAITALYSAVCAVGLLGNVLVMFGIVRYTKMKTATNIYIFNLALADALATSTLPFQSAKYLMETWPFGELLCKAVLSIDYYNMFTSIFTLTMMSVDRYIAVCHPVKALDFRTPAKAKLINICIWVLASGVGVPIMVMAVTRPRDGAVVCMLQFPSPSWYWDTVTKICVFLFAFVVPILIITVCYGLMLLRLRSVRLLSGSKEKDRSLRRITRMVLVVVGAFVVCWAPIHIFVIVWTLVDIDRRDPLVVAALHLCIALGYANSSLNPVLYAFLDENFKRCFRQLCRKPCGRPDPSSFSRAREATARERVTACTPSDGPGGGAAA
Chain of UniProt P14416 (whole entry, looked up): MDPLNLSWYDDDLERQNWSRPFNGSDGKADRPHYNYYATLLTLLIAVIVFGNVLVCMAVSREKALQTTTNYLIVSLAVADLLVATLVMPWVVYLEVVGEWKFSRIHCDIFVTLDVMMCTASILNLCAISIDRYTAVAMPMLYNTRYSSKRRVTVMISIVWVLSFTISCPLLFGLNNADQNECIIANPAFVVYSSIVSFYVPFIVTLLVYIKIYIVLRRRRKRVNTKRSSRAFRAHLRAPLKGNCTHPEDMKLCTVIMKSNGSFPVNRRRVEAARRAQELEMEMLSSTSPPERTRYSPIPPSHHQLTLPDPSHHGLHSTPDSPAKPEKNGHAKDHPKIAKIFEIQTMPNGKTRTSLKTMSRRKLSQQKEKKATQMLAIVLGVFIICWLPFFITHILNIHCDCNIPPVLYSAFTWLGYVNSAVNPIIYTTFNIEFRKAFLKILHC
Chain of UniProt P18505 (whole entry, looked up): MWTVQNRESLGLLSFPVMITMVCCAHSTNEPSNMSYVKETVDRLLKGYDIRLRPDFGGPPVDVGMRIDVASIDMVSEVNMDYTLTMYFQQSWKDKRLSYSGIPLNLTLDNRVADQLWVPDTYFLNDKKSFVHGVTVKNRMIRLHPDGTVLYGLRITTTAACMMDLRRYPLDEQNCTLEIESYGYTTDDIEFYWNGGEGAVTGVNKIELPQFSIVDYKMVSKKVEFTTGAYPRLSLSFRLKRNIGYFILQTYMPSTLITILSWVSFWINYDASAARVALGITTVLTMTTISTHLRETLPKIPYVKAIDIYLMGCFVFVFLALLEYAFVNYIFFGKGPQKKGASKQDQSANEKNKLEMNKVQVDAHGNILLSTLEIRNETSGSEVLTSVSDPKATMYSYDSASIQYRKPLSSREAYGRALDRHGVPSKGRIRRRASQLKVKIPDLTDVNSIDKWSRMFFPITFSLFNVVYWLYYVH
Chain of UniProt P30872 (whole entry, looked up): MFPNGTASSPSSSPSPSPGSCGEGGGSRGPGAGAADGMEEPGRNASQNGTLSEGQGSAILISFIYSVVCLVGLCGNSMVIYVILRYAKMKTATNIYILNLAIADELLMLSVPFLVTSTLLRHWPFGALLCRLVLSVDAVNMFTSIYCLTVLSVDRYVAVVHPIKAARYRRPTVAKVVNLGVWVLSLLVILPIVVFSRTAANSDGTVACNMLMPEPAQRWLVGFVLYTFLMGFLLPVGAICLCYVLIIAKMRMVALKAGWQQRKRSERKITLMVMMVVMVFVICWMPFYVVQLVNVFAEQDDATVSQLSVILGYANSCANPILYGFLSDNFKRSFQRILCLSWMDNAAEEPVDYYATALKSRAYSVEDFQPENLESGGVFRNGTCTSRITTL
Chain of UniProt P08908 (whole entry, looked up): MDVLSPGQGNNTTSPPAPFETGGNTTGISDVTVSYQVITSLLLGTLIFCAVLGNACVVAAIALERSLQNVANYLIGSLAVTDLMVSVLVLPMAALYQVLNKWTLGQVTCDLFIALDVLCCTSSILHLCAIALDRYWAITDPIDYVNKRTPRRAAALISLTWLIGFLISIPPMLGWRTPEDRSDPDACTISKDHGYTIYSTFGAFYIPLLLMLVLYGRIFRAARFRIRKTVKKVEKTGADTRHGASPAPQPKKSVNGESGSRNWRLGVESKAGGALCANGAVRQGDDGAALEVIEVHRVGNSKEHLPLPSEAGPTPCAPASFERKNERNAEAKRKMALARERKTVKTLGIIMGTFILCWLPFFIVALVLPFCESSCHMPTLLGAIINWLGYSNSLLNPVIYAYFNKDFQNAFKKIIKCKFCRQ
Chain of UniProt P31424 (whole entry, looked up): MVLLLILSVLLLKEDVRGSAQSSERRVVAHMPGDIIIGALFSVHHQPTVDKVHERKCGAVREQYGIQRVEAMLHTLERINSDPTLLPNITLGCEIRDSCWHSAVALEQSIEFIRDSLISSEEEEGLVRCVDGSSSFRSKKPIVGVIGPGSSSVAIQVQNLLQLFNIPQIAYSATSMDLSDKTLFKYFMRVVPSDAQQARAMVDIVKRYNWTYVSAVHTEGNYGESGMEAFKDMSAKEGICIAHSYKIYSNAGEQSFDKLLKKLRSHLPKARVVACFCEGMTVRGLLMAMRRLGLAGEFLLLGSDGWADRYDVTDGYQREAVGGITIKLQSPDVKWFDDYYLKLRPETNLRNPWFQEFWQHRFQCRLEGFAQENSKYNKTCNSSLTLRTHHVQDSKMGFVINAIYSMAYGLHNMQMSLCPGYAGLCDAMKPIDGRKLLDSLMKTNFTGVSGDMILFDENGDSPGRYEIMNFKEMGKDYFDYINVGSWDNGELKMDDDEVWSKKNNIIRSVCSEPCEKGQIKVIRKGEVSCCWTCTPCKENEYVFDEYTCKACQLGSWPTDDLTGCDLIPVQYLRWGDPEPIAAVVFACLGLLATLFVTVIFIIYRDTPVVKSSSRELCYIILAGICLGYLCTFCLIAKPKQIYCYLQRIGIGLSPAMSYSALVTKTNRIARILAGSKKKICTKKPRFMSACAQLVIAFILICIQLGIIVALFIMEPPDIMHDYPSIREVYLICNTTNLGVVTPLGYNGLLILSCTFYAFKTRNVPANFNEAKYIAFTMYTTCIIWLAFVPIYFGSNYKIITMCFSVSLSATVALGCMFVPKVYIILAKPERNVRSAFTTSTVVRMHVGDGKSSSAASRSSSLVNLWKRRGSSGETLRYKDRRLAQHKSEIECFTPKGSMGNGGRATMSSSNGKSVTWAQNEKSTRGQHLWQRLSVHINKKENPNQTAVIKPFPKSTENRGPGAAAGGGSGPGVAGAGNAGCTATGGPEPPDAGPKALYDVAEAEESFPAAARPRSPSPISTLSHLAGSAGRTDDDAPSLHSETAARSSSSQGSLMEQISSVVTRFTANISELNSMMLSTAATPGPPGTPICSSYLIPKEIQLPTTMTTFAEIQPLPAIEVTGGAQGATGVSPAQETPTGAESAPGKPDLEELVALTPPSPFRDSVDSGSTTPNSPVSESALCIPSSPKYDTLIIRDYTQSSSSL
Chain of UniProt P14867 (whole entry, looked up): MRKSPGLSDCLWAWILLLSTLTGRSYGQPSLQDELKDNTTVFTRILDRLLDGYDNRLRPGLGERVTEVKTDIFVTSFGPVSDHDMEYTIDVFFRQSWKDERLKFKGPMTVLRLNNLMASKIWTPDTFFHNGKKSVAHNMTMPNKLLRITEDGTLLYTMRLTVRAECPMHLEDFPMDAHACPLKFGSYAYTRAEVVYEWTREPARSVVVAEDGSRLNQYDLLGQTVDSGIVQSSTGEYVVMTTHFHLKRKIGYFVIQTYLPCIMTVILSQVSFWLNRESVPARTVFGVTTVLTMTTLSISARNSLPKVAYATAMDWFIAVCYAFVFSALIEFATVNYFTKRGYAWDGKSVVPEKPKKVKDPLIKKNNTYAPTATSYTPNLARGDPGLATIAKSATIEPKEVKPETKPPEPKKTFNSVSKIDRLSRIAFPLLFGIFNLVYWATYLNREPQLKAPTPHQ

| Structure (SMILES) | tested on | assay | system | setting | quantity | result |
| --- | --- | --- | --- | --- | --- | --- |
| CCC[CH2][Sn]([CH2]CCC)([CH2]CCC)[O]c1cc(Cl)c(Cl)cc1Cl | Aquaporin-4 (Rattus norvegicus, UniProt P47863) | water permeability, inhibitor, stopped-flow light scattering | TNC1 plasma membrane vesicles | 15 min | EC50 | 30 µM |
| CC(=O)Nc1ccc(Nc2nc(-c3ccc(Cl)c(Cl)c3)cs2)cc1 | Sterol carrier protein 2 | NBDS displacement, fluorescent probe displacement |  | 50% of maximum displacement, with: NBDS 500 nM | EC50 | 2.2 ± 0.2 µM |
| CC(C)N(CCc1c[nH]c2ccccc12)C(C)C | HTR2A | calcium signal, agonist |  |  | EC50 | 0.0335 µM |
| CC(C)[C@H](NC(=O)[C@@H]1CSSC[C@H](NC(=O)[C@H](CC(N)=O)NC(=O)[C@@H](N)CCCCN)C(=O)N[C@@H](Cc2ccccc2)C(=O)N[C@H](Cc2c[nH]c3ccccc23)C(=O)N[C@@H](CCCCN)C(=O)N[C@@H]([C@@H](C)O)C(=O)N1)C(=O)O | SSTR1 (Homo sapiens, UniProt P30872) |  |  |  | EC50 | 0.13 µM |
| [Cl-].[Cl-].[Zn+2] | Glutamate receptor ionotropic, kainate 3 (Rattus norvegicus, UniProt P42264) | ion current, positive modulator, whole-cell patch clamp | HEK293 cells | combined potentiation and inhibition fit, with: glutamate 10 mM | EC50 | 46 µM |
| CC[C@H](C)[C@H](NC(=O)[C@H](Cc1ccccc1)NC(=O)[C@H](CCCNC(=N)N)NC(=O)[C@H](CO)NC(=O)[C@@H](NC(=O)[C@H](CCCNC(=N)N)NC(=O)[C@H](CCSC)NC(=O)[C@@H](N)CCC(=O)O)[C@@H](C)CC)C(=O)N[C@@H](CC(C)C)C(=O)N[C@@H](CC(=O)O)C(=O)N[C@@H](Cc1ccccc1)C(=O)N[C@@H](CC(C)C)C(=O)N[C@@H](Cc1ccccc1)C(=O)N[C@@H](CCC(N)=O)C(=O)N[C@@H](CCCNC(=N)N)C(=O)O | histidine kinase ComD (Streptococcus pneumoniae serotype 2, UniProt A0A0H2ZM50) |  | Streptococcus pneumoniae |  | EC50 | > 1 µM |
| CCCN(CCC)CCc1c[nH]c2ccccc12 | HTR2A | calcium signal, agonist |  |  | EC50 | 0.0261 µM |
| C[C@@]1(O)CC[C@@]2(C)[C@@H](CC[C@@H]3[C@@H]2CC[C@]2(C)[C@@H](c4cc(CO)on4)CC[C@@H]32)C1 | GABA A receptor alpha-1/beta-1/gamma-2 (Homo sapiens, UniProt P14867+P18505+P18507) | GABA current potentiation, positive modulator, two-electrode voltage clamp | Xenopus laevis oocytes | 30 s preincubation, with: GABA EC10 | EC50 | 0.63 ± 0.05 µM |
| CCN(CC)CCc1c[nH]c2ccccc12 | HTR2A | calcium signal, agonist |  |  | EC50 | 0.0678 µM |
| COc1cc2ccnc3c2c(c1O)NC=C3 | OPRD1 (Homo sapiens, UniProt P41143) | calcium signal, agonist |  |  | EC50 | 4.1 µM |
| CC[C@H](C)[C@H](NC(=O)[C@H](Cc1c[nH]cn1)NC(=O)[C@@H](NC(=O)[C@H](CCC(N)=O)NC(=O)[C@H](CCCNC(=N)N)NC(=O)[C@@H](NC(=O)[C@@H](N)CCC(=O)O)[C@@H](C)CC)[C@@H](C)O)C(=O)N[C@@H](Cc1ccccc1)C(=O)N[C@@H](Cc1ccccc1)C(=O)N[C@@H](Cc1ccccc1)C(=O)N[C@@H](CC(N)=O)C(=O)N[C@@H](CC(C)C)C(=O)N[C@@H](Cc1ccccc1)C(=O)N[C@@H](CCCCN)C(=O)N[C@@H](CCCNC(=N)N)C(=O)N[C@@H](CCCNC(=N)N)C(=O)O | histidine kinase ComD (Streptococcus pneumoniae serotype 4, UniProt A0A0H2US84) | reporter gene, agonist | Streptococcus pneumoniae, TIGR4 comX::lacZ | 30 min, pH 7.3, 37 °C | EC50 | > 10 µM |
| COC(=O)c1ccc2c(C(CC(F)(F)F)c3cccs3)c(-c3ccccc3)[nH]c2c1 (single isomer, unassigned; (+)) | CNR1 (Homo sapiens, UniProt P21554) | positive allosteric modulator |  | with: EC20 CP 55940 | EC50 | 0.16 ± 0.147 µM |
| CC[C@H](C)[C@H](NC(=O)[C@H](Cc1ccccc1)NC(=O)[C@H](CCCNC(=N)N)NC(=O)[C@H](CO)NC(=O)[C@@H](NC(=O)[C@H](CCCNC(=N)N)NC(=O)[C@H](CCSC)NC(=O)[C@@H](N)CCC(=O)O)[C@@H](C)CC)C(=O)N[C@@H](CC(C)C)C(=O)N[C@@H](CC(=O)O)C(=O)N[C@@H](Cc1ccccc1)C(=O)N[C@@H](CC(C)C)C(=O)N[C@@H](CC(C)C)C(=O)N[C@@H](CC(C)C)C(=O)N[C@@H](CCCNC(=N)N)C(=O)O | histidine kinase ComD (Streptococcus pneumoniae serotype 2, UniProt A0A0H2ZM50) |  | Streptococcus pneumoniae |  | EC50 | > 1 µM |
| CN[C@@](C)(C[18F])C(=O)O | DU-145 tumour model |  | host not given, heart | 30 min, tumour-bearing | tracer uptake | 2.9 %ID/g |
| CC[C@H](C)[C@@H]1NC(=O)[C@H](CCCNC(=N)N)NC(=O)[C@H](CC(=O)O)NC(=O)[C@H](CC(C)C)NC(=O)[C@H](CCCCN)NC(=O)[C@H](CC(C)C)NC(=O)CNC(=O)[C@H](Cc2ccccc2)NC(=O)[C@@H](NC(=O)CNC(=O)[C@H](CCCCN)NC(=O)[C@H](CO)NC(=O)[C@H](CC(C)C)NC(=O)CNC(=O)[C@H](CCCCN)NC(=O)[C@H](CCCCN)NC(=O)[C@H](CC(N)=O)NC(=O)[C@H](C)NC(=O)CNC(=O)[C@H](CCCCN)NC(=O)[C@H](Cc2ccc(O)cc2)NC(=O)[C@H](CCCCN)NC(=O)[C@H](CCCNC(=N)N)NC(=O)[C@H](C)NC(=O)[C@H](CC(N)=O)NC(=O)[C@@H]2CCCN2C(=O)[C@H](Cc2c[nH]cn2)NC(=O)[C@H](CCC(=O)O)NC(=O)[C@H](CCC(N)=O)NC(=O)CNC(=O)[C@@H]2CCCN2)CSSC[C@@H](C(=O)O)NC(=O)CNC(=O)[C@H](CC(C)C)NC(=O)CNC(=O)[C@H](CO)NC(=O)[C@H](CCSC)NC(=O)[C@H](CO)NC(=O)CNC1=O | NPR-B | urine cGMP/creatinine, sigmoid Emax model on Cmax | human | first 6 months | EC50 | 4.79 ng/mL |
| CNCCc1c[nH]c2ccc(OC)cc12 | HTR1A (Homo sapiens, UniProt P08908) | calcium signal, agonist |  |  | EC50 | 0.22 µM |
| CCCCC/C=C\C/C=C\C/C=C\C/C=C\CCCC(=O)NCC(=O)O | Sterol carrier protein 2 | NBDS displacement, fluorescent probe displacement |  | 50% of maximum displacement, with: NBDS 500 nM | EC50 | 2.78 ± 0.06 µM |
| O=C(c1ccc(F)cc1)N1CCc2nc(COc3ccccc3)oc2C1 | Grm5 (Rattus norvegicus, UniProt P31424) | calcium signal, positive allosteric modulator |  |  | EC50 | 0.235 µM |
| CNc1nc2cc(OCCCCN3CCN(c4cccc(Cl)c4Cl)CC3)ccc2s1 | DRD2 (Homo sapiens, UniProt P14416) | cAMP, agonist, luciferase |  |  | EC50 | 0.024 µM |
| O=C1Nc2cc(Cl)c(Cl)cc2N2CCNCC12 (centres unmarked) | HTR2A | calcium signal, agonist |  |  | EC50 | 0.061 µM |
| CC[C@H](C)[C@H](NC(=O)[C@H](Cc1c[nH]cn1)NC(=O)[C@@H](NC(=O)[C@H](CCC(N)=O)NC(=O)[C@H](CCCNC(=N)N)NC(=O)[C@H](CCSC)NC(=O)[C@@H](N)CCC(=O)O)[C@@H](C)O)C(=O)N[C@H](C(=O)N[C@@H](Cc1ccccc1)C(=O)N[C@@H](Cc1ccccc1)C(=O)N[C@@H](Cc1ccccc1)C(=O)N[C@@H](Cc1ccccc1)C(=O)N[C@@H](Cc1ccccc1)C(=O)N[C@@H](CCCCN)C(=O)N[C@@H](CCCNC(=N)N)C(=O)N[C@@H](CCCNC(=N)N)C(=O)O)[C@@H](C)CC | histidine kinase ComD (Streptococcus pneumoniae serotype 4, UniProt A0A0H2US84) | reporter gene, agonist | Streptococcus pneumoniae, TIGR4 comX::lacZ | 30 min, pH 7.3, 37 °C | EC50 | > 10 µM |
| CC(C)Oc1ccccc1-n1c(CN2CCN(C(=O)COc3ccc(Cl)cc3)CC2)nc2ccccc2c1=O | Slc7a11 (Rattus norvegicus, UniProt A0A8I6AB70) | cystine uptake, inhibitor | rat primary microglia | 15 min, with: LPS, [14C]-cystine | EC50 | 4.78 ± 1.74 µM |
| CC[C@H](C)[C@H](NC(=O)[C@H](CCCNC(=N)N)NC(=O)[C@H](CCSC)NC(=O)[C@@H](N)CCC(=O)O)C(=O)N[C@@H](CO)C(=O)N[C@@H](CCCNC(=N)N)C(=O)N[C@H](C(=O)N[C@H](C(=O)N[C@@H](CCCNC(=N)N)C(=O)N[C@@H](CC(=O)O)C(=O)N[C@@H](Cc1ccccc1)C(=O)N[C@@H](CC(C)C)C(=O)N[C@@H](CC(C)C)C(=O)N[C@@H](CC(C)C)C(=O)N[C@@H](CCCNC(=N)N)C(=O)O)[C@@H](C)CC)[C@@H](C)CC | histidine kinase ComD (Streptococcus pneumoniae serotype 2, UniProt A0A0H2ZM50) |  | Streptococcus pneumoniae |  | EC50 | > 1 µM |
| CCCN(CCC)CCc1c[nH]c2ccc(OC)cc12 | HTR2A | calcium signal, agonist |  |  | EC50 | 0.006 µM |
| CC[C@H](C)[C@H](NC(=O)[C@H](Cc1ccccc1)NC(=O)[C@H](CC(=O)O)NC(=O)[C@H](CC(C)C)NC(=O)[C@@H](NC(=O)[C@H](Cc1ccccc1)NC(=O)[C@H](CCCNC(=N)N)NC(=O)[C@H](CO)NC(=O)[C@@H](NC(=O)[C@H](CCCNC(=N)N)NC(=O)[C@H](CCSC)NC(=O)[C@@H](N)CCC(=O)O)[C@@H](C)CC)[C@@H](C)CC)C(=O)N[C@@H](Cc1ccccc1)C(=O)N[C@@H](CC(C)C)C(=O)N[C@@H](CCCNC(=N)N)C(=O)O | histidine kinase ComD (Streptococcus pneumoniae serotype 2, UniProt A0A0H2ZM50) |  | Streptococcus pneumoniae |  | EC50 | > 1 µM |
| CC(C)c1ccc2c(c1)c(SC(C)(C)C)c(CC(C)(C)C(=O)O)n2Cc1ccc(Cl)cc1 | Microtubule-associated protein tau, monomeric (MAPT, Homo sapiens, UniProt P10636) | intramolecular FRET | HEK293, GFP-tau-RFP biosensor |  | EC50 | 2.12 µM |

A few entries again:
| Structure (SMILES) | tested on | assay | system | setting | quantity | result |
| --- | --- | --- | --- | --- | --- | --- |
| CC(C)Oc1ccccc1-n1c(CN2CCN(C(=O)COc3ccc(Cl)cc3)CC2)nc2ccccc2c1=O | Slc7a11 (Rattus norvegicus, UniProt A0A8I6AB70) | cystine uptake, inhibitor | rat primary microglia | 15 min, with: LPS, [14C]-cystine | EC50 | 4.78 ± 1.74 µM |
| CC[C@H](C)[C@@H]1NC(=O)[C@H](CCCNC(=N)N)NC(=O)[C@H](CC(=O)O)NC(=O)[C@H](CC(C)C)NC(=O)[C@H](CCCCN)NC(=O)[C@H](CC(C)C)NC(=O)CNC(=O)[C@H](Cc2ccccc2)NC(=O)[C@@H](NC(=O)CNC(=O)[C@H](CCCCN)NC(=O)[C@H](CO)NC(=O)[C@H](CC(C)C)NC(=O)CNC(=O)[C@H](CCCCN)NC(=O)[C@H](CCCCN)NC(=O)[C@H](CC(N)=O)NC(=O)[C@H](C)NC(=O)CNC(=O)[C@H](CCCCN)NC(=O)[C@H](Cc2ccc(O)cc2)NC(=O)[C@H](CCCCN)NC(=O)[C@H](CCCNC(=N)N)NC(=O)[C@H](C)NC(=O)[C@H](CC(N)=O)NC(=O)[C@@H]2CCCN2C(=O)[C@H](Cc2c[nH]cn2)NC(=O)[C@H](CCC(=O)O)NC(=O)[C@H](CCC(N)=O)NC(=O)CNC(=O)[C@@H]2CCCN2)CSSC[C@@H](C(=O)O)NC(=O)CNC(=O)[C@H](CC(C)C)NC(=O)CNC(=O)[C@H](CO)NC(=O)[C@H](CCSC)NC(=O)[C@H](CO)NC(=O)CNC1=O | NPR-B | urine cGMP/creatinine, sigmoid Emax model on Cmax | human | first 6 months | EC50 | 4.79 ng/mL |
| O=C(c1ccc(F)cc1)N1CCc2nc(COc3ccccc3)oc2C1 | Grm5 (Rattus norvegicus, UniProt P31424) | calcium signal, positive allosteric modulator |  |  | EC50 | 0.235 µM |
| CCCN(CCC)CCc1c[nH]c2ccccc12 | HTR2A | calcium signal, agonist |  |  | EC50 | 0.0261 µM |
